{"data": "Results pooled from the literature", "target": "Cytochrome P450 3A4 (CYP3A4, Homo sapiens, UniProt P08684)", "action": "inhibitor", "note": "Protocols differ between the studies behind these lines. Numbers after ± are the reported error.", "sequence of UniProt P08684 (whole entry, looked up)": "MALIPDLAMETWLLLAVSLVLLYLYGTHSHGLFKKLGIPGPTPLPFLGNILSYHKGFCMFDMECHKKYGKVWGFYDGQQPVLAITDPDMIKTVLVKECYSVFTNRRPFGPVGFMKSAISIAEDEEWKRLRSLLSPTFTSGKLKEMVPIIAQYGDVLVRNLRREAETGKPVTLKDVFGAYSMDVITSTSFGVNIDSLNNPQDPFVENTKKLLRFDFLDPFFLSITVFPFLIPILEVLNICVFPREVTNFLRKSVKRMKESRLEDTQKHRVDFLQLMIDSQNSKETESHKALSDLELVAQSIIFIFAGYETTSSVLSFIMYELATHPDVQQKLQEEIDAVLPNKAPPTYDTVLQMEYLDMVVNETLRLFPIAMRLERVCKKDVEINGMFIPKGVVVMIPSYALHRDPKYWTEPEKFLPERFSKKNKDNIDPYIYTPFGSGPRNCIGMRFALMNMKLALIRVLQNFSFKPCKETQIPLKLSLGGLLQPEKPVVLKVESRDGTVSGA"}
{"SMILES": "CN(C)C(CNC(=O)Nc1cc(C(F)(F)F)ccc1N1CCOCC1)c1ccncc1 (stereo not drawn)", "test": "enzyme activity", "test system": "human, liver microsomes", "endpoint": "IC50", "value": "0.44 µM"}
{"SMILES": "CC(Cc1cc2c(cc1OCc1ccccc1)OCO2)CS(=O)(=O)c1ccccc1 (stereo not drawn)", "test": "enzyme activity, fluorescence", "endpoint": "IC50", "value": "0.13 µM"}
{"SMILES": "O=C1c2oc3cc(O)c(O)cc3c2C(=O)c2oc3cc(O)c(O)cc3c21", "test": "midazolam 1'-hydroxylation", "test system": "pooled human liver microsomes", "setting": "60 min, pH 7.4, 37 °C, preincubation 0 min without NADPH", "endpoint": "IC50", "value": "11.3 µM"}
{"SMILES": "C[C@]1(O)CCCN(c2nc(Nc3ccc(S(=O)(=O)N[C@H]4CC[C@H](CN5CCN(c6ccc(C7CCC(=O)NC7=O)cc6F)CC5)CC4)cc3)ncc2C(F)(F)F)C1 (stereo partly drawn)", "test": "time-dependent inhibition", "setting": "30 min preincubation, added: NADPH", "endpoint": "IC50", "value": "> 10 µM"}
{"SMILES": "COc1ccc(-c2cccc(S(=O)(=O)N[C@@H](Cc3cccc(C(=N)N)c3)C(=O)N3CCC(NC(=O)NC4CCCCC4)CC3)c2)c(OC)c1", "test": "enzyme activity", "setting": "testosterone probe", "endpoint": "IC50", "value": "2 µM"}
{"SMILES": "COC(=O)c1ccc2c(c1)NC(=O)/C2=C(\\Nc1ccc2c(c1)CCN2C(=O)CN1CCOCC1)c1ccccc1", "test system": "recombinant enzyme", "setting": "10 min, added: testosterone 50 µM", "endpoint": "IC50", "value": "0.087 µM"}
{"SMILES": "CCc1nc(N)nc(N)c1C#CC(C)c1cc(-c2cc(C)nc(C)c2)ccc1OC (stereo not drawn)", "test": "enzyme activity, fluorescence", "setting": "30 min", "endpoint": "IC50", "value": "3.6 µM"}
{"SMILES": "CC1CCC2(OC1)OC1CC3C4CC=C5CC(OC6OC(CO)C(OC7OC(CO)C(O)C7O)C(O)C6OC6OC(C)C(O)C(O)C6O)CCC5(C)C4CCC3(C)C1(O)C2C (stereo not drawn)", "test": "enzyme activity", "test system": "human, liver microsomes", "setting": "pH 7.4, testosterone probe", "endpoint": "Ki", "value": "2.38 µM"}
{"SMILES": "C[C@](C(=O)NC1CCC(F)(F)CC1)(c1cncnc1)N(C(=O)[C@H](F)Cl)c1ccc(OC(F)(F)F)cc1", "test": "enzyme activity", "setting": "10 (unit not given)", "endpoint": "IC50", "value": "15.6 µM"}
{"SMILES": "COc1ccc(-c2cccc(S(=O)(=O)N[C@@H](Cc3cccc(C(=N)N)c3)C(=O)N3CCN(C(=O)NC4CCCCC4)CC3)c2)c(OC)c1", "test": "enzyme activity", "setting": "testosterone probe", "endpoint": "IC50", "value": "6.2 µM"}
{"SMILES": "O=C(NC1CCC(F)(F)CC1)C(c1cncnc1)N(C(=O)C(F)Cl)c1ccc(-c2cncs2)cc1 (stereo not drawn)", "test": "enzyme activity", "setting": "10 (unit not given)", "endpoint": "IC50", "value": "1.45 µM"}
{"SMILES": "N=C(N)c1cccc(C[C@H](NS(=O)(=O)c2cccc(-c3cc(CO)ccc3Cl)c2)C(=O)N2CCC(CCNC(=O)NC3CCCCC3)CC2)c1", "test": "enzyme activity, fluorometric", "test system": "human liver microsomes", "setting": "15 min, 37 °C", "endpoint": "IC50", "value": "0.3 ± 0.07 µM"}
{"note": "Repeated from above:"}
{"SMILES": "N=C(N)c1cccc(C[C@H](NS(=O)(=O)c2cccc(-c3cc(CO)ccc3Cl)c2)C(=O)N2CCC(CCNC(=O)NC3CCCCC3)CC2)c1", "test": "enzyme activity, fluorometric", "test system": "human liver microsomes", "setting": "15 min, 37 °C", "endpoint": "IC50", "value": "0.3 ± 0.07 µM"}
